Experimental data pooled from the literature.
Compare with care: the assays were run in different laboratories. “And” joins repeats or separate records; there may be more than shown. Numbers after ± are the reported error.
GLP1R: Glucagon-like peptide 1 receptor (GLP1R, Homo sapiens, UniProt P43220)
Sequence of UniProt Q9HC35 (whole entry, looked up): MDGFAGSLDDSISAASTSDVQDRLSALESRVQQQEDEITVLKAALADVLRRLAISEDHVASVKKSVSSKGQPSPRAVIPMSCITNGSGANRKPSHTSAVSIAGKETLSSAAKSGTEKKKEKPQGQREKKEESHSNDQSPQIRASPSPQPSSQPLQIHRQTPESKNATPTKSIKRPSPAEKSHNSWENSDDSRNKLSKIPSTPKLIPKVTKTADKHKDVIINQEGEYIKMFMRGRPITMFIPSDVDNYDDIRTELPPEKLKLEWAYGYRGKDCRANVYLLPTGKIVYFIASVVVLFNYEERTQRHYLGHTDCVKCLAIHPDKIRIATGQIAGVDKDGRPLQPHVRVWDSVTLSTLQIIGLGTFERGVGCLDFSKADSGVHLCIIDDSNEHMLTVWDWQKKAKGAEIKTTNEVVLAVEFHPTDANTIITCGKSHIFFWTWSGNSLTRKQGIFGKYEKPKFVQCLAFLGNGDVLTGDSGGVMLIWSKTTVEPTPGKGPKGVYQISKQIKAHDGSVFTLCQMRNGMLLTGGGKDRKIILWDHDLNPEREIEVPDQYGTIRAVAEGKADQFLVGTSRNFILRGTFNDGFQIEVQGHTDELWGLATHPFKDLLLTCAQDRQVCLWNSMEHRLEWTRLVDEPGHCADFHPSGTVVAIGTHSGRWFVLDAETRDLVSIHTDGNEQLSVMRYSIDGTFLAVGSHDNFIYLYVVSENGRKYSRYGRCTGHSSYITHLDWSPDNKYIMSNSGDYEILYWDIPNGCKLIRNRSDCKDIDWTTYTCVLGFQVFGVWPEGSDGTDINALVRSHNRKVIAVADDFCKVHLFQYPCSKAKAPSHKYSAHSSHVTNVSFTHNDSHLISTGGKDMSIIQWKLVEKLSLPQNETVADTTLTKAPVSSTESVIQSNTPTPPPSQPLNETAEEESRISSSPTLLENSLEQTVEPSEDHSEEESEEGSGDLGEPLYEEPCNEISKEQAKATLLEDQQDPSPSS
Sequence of UniProt Q64663 (whole entry, unmodified, looked up): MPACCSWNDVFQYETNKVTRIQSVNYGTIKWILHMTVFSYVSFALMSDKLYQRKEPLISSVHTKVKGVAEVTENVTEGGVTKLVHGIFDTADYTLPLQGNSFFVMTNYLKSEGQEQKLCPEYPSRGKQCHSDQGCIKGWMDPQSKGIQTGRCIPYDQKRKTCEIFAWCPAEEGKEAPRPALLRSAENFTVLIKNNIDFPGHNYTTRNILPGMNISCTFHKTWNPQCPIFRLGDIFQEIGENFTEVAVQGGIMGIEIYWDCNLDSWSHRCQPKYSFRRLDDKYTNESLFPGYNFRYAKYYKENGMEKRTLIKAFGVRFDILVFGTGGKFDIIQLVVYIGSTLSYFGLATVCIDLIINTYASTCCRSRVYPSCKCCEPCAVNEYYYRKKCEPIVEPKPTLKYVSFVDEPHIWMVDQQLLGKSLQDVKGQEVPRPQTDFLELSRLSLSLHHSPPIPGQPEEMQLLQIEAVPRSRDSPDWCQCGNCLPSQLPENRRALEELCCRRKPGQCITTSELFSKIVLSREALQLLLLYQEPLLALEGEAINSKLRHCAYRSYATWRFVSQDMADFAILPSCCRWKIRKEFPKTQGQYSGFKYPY
Sequence of UniProt Q9UM73 (whole entry, looked up): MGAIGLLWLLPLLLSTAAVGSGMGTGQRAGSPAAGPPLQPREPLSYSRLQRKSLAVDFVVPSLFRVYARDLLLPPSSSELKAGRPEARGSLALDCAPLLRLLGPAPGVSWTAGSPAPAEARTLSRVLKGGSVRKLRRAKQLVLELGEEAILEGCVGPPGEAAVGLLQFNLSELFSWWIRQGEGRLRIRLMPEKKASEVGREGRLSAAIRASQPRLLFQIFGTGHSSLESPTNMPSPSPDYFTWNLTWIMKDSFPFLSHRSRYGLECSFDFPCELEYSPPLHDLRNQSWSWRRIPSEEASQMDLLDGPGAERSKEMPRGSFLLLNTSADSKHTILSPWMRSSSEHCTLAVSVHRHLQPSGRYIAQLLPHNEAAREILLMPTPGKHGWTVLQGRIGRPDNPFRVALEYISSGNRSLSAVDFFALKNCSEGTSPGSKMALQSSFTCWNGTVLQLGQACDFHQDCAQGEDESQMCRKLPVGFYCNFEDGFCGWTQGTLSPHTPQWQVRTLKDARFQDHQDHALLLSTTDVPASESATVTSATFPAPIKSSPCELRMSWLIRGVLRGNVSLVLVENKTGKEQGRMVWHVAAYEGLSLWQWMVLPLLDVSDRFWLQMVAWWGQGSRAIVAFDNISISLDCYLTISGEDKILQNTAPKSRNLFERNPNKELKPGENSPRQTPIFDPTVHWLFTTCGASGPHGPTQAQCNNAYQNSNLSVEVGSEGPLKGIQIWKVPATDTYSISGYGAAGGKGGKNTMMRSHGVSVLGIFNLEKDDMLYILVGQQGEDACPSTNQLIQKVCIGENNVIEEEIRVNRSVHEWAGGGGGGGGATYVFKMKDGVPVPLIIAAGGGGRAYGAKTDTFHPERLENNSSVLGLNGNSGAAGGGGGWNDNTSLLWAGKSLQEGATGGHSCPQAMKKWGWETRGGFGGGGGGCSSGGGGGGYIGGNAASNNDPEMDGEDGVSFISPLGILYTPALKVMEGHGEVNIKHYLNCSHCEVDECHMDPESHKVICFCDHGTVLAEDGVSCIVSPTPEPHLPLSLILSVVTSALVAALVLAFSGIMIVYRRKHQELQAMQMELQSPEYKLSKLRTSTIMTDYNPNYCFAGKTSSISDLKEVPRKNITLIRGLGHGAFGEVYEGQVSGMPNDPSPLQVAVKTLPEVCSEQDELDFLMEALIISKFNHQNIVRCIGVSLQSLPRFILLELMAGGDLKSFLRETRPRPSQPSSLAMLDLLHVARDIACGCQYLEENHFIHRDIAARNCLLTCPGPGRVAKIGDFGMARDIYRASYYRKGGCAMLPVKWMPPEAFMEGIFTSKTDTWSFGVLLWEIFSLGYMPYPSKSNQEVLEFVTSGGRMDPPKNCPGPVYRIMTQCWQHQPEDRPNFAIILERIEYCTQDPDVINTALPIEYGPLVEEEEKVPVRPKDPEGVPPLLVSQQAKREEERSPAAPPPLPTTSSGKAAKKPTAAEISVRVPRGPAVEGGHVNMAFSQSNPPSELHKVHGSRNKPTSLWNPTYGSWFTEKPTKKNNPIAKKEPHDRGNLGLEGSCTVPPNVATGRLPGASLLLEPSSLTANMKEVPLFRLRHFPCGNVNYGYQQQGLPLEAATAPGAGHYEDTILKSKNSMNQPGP
Sequence of UniProt Q8BTI9 (whole entry, looked up): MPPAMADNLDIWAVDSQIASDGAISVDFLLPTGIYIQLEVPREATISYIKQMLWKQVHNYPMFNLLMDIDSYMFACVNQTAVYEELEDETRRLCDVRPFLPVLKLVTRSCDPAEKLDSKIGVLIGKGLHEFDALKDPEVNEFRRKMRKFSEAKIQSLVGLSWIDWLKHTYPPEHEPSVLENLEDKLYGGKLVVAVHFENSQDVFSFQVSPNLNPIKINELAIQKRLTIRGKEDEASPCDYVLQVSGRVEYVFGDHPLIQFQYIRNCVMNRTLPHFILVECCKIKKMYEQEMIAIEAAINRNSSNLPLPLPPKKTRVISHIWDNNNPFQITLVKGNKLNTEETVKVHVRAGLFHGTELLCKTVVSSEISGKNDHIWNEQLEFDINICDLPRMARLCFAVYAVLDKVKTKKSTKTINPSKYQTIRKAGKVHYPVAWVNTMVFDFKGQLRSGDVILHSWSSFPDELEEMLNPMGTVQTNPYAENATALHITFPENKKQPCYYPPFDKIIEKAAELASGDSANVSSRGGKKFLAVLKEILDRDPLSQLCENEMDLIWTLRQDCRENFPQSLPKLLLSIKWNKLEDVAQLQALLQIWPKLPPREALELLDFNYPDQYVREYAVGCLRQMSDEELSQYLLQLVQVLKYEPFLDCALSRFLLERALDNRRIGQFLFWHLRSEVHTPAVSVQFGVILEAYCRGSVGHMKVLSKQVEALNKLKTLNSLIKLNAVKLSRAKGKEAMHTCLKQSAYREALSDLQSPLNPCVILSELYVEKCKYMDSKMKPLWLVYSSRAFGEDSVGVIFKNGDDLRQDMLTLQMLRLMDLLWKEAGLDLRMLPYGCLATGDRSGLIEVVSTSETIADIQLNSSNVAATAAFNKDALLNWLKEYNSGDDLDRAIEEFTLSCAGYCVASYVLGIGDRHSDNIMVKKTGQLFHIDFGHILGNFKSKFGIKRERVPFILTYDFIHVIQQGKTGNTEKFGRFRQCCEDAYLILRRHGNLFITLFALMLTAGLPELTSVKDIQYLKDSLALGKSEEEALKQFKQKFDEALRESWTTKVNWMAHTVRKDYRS
Sequence of UniProt P31749 (whole entry, looked up): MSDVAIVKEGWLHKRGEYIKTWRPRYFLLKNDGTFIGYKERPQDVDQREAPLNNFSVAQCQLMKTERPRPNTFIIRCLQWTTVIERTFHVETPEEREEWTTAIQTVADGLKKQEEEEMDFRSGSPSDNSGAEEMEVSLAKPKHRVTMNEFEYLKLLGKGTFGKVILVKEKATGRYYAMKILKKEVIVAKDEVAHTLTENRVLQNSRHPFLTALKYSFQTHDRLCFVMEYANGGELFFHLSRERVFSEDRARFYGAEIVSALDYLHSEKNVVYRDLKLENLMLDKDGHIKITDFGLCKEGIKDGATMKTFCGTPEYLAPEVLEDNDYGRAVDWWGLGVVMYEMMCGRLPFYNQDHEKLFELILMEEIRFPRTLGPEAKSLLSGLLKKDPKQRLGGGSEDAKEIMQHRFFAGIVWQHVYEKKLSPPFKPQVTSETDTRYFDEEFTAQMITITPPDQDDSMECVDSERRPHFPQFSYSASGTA
Sequence of UniProt P47775 (whole entry, looked up): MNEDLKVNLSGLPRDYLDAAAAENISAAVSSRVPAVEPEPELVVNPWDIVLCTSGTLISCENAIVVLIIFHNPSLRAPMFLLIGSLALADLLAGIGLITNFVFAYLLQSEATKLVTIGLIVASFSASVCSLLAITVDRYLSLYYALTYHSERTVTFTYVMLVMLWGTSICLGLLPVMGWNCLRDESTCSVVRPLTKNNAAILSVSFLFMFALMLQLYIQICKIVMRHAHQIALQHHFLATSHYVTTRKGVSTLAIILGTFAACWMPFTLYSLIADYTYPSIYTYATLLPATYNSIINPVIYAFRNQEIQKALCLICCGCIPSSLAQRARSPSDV

| SMILES | tested on | test | test system | conditions | scale | measurement | value |
| --- | --- | --- | --- | --- | --- | --- | --- |
| Cn1cc(-c2ccc(-c3cncc(Cl)c3N3CCC4(CCNC4=O)CC3)cc2)cn1 | COLO 205 | gene expression, microarray, refers to: FOSL1 mRNA |  | concentration not given, 2 h | reference: untreated cells | log2 fold change | 2.51 |
| COc1cc(-c2cncc3c2CN(C)Cc2cc(N4CCNCC4)ccc2-3)cc(OC)c1OC | Phosphatidylinositol 4,5-bisphosphate 3-kinase catalytic subunit beta isoform, with p85 alpha (Pik3cb, Mus musculus, UniProt Q8BTI9) | kinase activity |  | 1 µM, p110b/p85a)(m mouse, added: ATP 10 µM | reference: DMSO | remaining activity | 88% |
| CC(C)C[C@@H]1NC(=O)CNC(=O)[C@H](CC(C)C)NC(=O)[C@@H]2CCCN2C(=O)[C@H](CC(=O)O)NC(=O)[C@H](Cc2ccc(O)cc2)NC(=O)CNC(=O)[C@@H](Cc2ccc(O)cc2)NC(=O)CSC[C@@H](C(N)=O)NC(=O)[C@H](C)NC(=O)[C@H](Cc2ccccc2)NC(=O)[C@H](Cc2ccc(O)cc2)NC(=O)[C@H](CCCCN)NC1=O | Vacuolar protein sorting-associated protein 29 (VPS29, Homo sapiens, UniProt Q9UBQ0) | binding, ITC |  | 25 °C, protein alone |  | -TΔS | 6.4 ± 1.2 kcal/mol |
| COCCN(C)C(=O)c1ccc(C2CCCCC2)cc1 |  | liver microsome stability | mouse liver microsomes | 1 µM |  | hepatic clearance | 86 mL/min/kg |
| [N-]=[N+]=NCC(=O)N[C@H]1[C@H]([C@H](O)[C@H](O)CO)O[C@@](O[C@H]2[C@@H](O)[C@@H](CO)O[C@@H](Oc3ccc([N+](=O)[O-])cc3)[C@@H]2O)(C(=O)O)C[C@@H]1O | Sialidase-2 (Homo sapiens, UniProt Q9Y3R4) | substrate |  | 10 min, pH 5.0, 37 °C |  | Vmax | 0.001 ± 0.0001 mM/s |
| NCCS | uncharacterized protein (Pelagibacter ubique, UniProt Q4FMK2) | differential scanning fluorimetry | Candidatus Pelagibacter ubique | concentration not given | higher = stronger binding | ΔTm | 6.43 °C |
| COc1cc(Nc2ncc3c(n2)-c2ccc(Cl)cc2C(c2c(F)cccc2OC)=NC3)ccc1C(=O)O | STK23 | kinase activity |  | 1 µM |  | remaining activity | 97% |
| N#CCC(=O)Nc1ccc(C2CCCCC2)cc1 |  | liver microsome stability | mouse liver microsomes | 1 µM |  | hepatic clearance | 74 mL/min/kg |
| O=c1nc(SCc2cc(F)cc(C(F)(F)F)c2)nc(SCc2ccc3nc(OCCN4CCOCC4)ccc3c2)[nH]1 | TOP2A (Homo sapiens, UniProt P11388) | decatenation |  | 7.8 µM, replicate 2 |  | decatenated DNA | 94.3% |
| CSc1ccc(C(=O)/C=C/c2cc(C)c(OC(C)(C)C(=O)O)c(C)c2)cc1 | Peroxisome proliferator-activated receptor delta (Rattus norvegicus, UniProt Q62879) | reporter gene, agonist, luciferase reporter | rat |  | reference: maximal control activation | Emax | 46% |
| CC[C@H](C)[C@H](NC(=O)[C@H](Cc1ccccc1)NC(=O)[C@H](CCC(=O)O)NC(=O)[C@H](CCCNC(=N)N)NC(=O)[C@H](C)NC(=O)[C@H](C)NC(=O)[C@H](CCC(N)=O)NC(=O)[C@H](CCCCNc1c(NCCCCCN(O)C(=O)CCC(=O)NCCCCCN(O)C(=O)CCC(=O)NCCCCCN(O)C(C)=O)c(=O)c1=O)NC(=O)[C@H](CCC(=O)O)NC(=O)[C@H](CC(C)C)NC(=O)[C@H](Cc1ccc(O)cc1)NC(=O)[C@H](CO)NC(=O)[C@H](CO)NC(=O)[C@H](CCCCNc1c(NCCCCCN(O)C(=O)CCC(=O)NCCCCCN(O)C(=O)CCC(=O)NCCCCCN(O)C(C)=O)c(=O)c1=O)NC(=O)[C@H](CC(=O)O)NC(=O)[C@H](CO)NC(=O)[C@@H](NC(=O)[C@H](Cc1ccccc1)NC(=O)[C@@H](NC(=O)CNC(=O)[C@H](CCC(=O)O)NC(=O)[C@H](C)NC(=O)CCc1cnc[nH]1)[C@@H](C)O)[C@@H](C)O)C(=O)N[C@@H](C)C(=O)N[C@@H](Cc1c[nH]c2ccccc12)C(=O)N[C@@H](CC(C)C)C(=O)N[C@H](C(=O)N[C@@H](CCCNC(=N)N)C(=O)NCC(=O)N[C@@H](CCCNC(=N)N)C(=O)N[C@@H](CCCCNC(=O)COCCOCCNC(=O)COCCOCCNC(=O)CC[C@H](NC(=O)CCCCCCCCCCCCCCCCC(=O)O)C(=O)O)C(=O)O)C(C)C | GLP1R | agonist, CRE luciferase reporter | BHK cells | metal-free DFO conjugate, added: 1% HSA | reference: parent peptide | fold potency loss | 14.3 |
| CCCCCCCCCCCC(=O)O | Ppara (Mus musculus, UniProt P23204, F272I) | far-UV circular dichroism |  | concentration not given |  | secondary structure change | no effect |
| CC[C@H](C)[C@H](NC(=O)[C@H](Cc1ccccc1)NC(=O)[C@H](CCC(=O)O)NC(=O)[C@H](CCCNC(=N)N)NC(=O)[C@H](C)NC(=O)[C@H](C)NC(=O)[C@H](CCC(N)=O)NC(=O)[C@H](CCC(=O)O)NC(=O)[C@H](CCC(=O)O)NC(=O)[C@H](CC(C)C)NC(=O)[C@H](Cc1ccc(O)cc1)NC(=O)[C@H](CO)NC(=O)[C@H](CO)NC(=O)[C@@H](NC(=O)[C@H](CC(=O)O)NC(=O)[C@H](CO)NC(=O)[C@@H](NC(=O)[C@H](Cc1ccccc1)NC(=O)[C@@H](NC(=O)CNC(=O)[C@H](CCC(=O)O)NC(=O)[C@H](C)NC(=O)CCc1cnc[nH]1)[C@@H](C)O)[C@@H](C)O)C(C)C)C(=O)N[C@@H](C)C(=O)N[C@@H](Cc1c[nH]c2ccccc12)C(=O)N[C@@H](CC(C)C)C(=O)N[C@H](C(=O)N[C@@H](CCCNC(=N)N)C(=O)NCC(=O)N[C@@H](CCCNC(=N)N)C(=O)N[C@@H](CCCCNC(=O)COCCOCCNC(=O)COCCOCCNC(=O)CC[C@H](NC(=O)CCCCCCCCCCCCCCCCC(=O)O)C(=O)O)C(=O)NCC(=O)NCC(=O)N[C@@H](CO)C(=O)N[C@@H](CCCCNc1c(NCCCCCN(O)C(=O)CCC(=O)NCCCCCN(O)C(=O)CCC(=O)NCCCCCN(O)C(C)=O)c(=O)c1=O)C(=O)NCC(=O)NCC(=O)N[C@@H](CO)C(=O)N[C@@H](CCCCNc1c(NCCCCCN(O)C(=O)CCC(=O)NCCCCCN(O)C(=O)CCC(=O)NCCCCCN(O)C(C)=O)c(=O)c1=O)C(=O)NCC(=O)NCC(=O)N[C@@H](CO)C(=O)N[C@@H](CCCCNc1c(NCCCCCN(O)C(=O)CCC(=O)NCCCCCN(O)C(=O)CCC(=O)NCCCCCN(O)C(C)=O)c(=O)c1=O)C(=O)O)C(C)C | GLP1R | agonist, CRE luciferase reporter | BHK cells | metal-free DFO conjugate, added: 0% HSA | reference: parent peptide | fold potency loss | 6.8 |
| COc1cc(N2CCC(N3CCN(C)CC3)CC2)ccc1Nc1ncc(Cl)c(Nc2ccccc2P(C)(C)=O)n1 | ALK tyrosine kinase receptor/Echinoderm microtubule-associated protein-like 4 (Homo sapiens, UniProt Q9HC35+Q9UM73) | degrader, immunoblotting, refers to: ALK tyrosine kinase receptor/Echinoderm microtubule-associated protein-like 4 | Ba/F3 EML4-ALK | concentration not given, 6 h, unit not given | reference: untreated | protein level | 0.944 and 0.916 and 1.11 |
| Nc1nc2c(ncn2[C@@H]2O[C@H](COP(=O)(O)O)[C@@H](O)[C@H]2O)c(=O)[nH]1 | GUK1 (Homo sapiens, UniProt Q16774, Y53A) | enzyme activity, NADH-coupled |  |  |  | kcat | 12.7 s⁻¹ |
| CC[C@H](C)[C@H](NC(=O)[C@H](Cc1ccccc1)NC(=O)[C@H](CCC(=O)O)NC(=O)[C@H](CCCNC(=N)N)NC(=O)[C@H](C)NC(=O)[C@H](C)NC(=O)[C@H](CCC(N)=O)NC(=O)[C@H](CCCCNc1c(NCCCCCN(O)C(=O)CCC(=O)NCCCCCN(O)C(=O)CCC(=O)NCCCCCN(O)C(C)=O)c(=O)c1=O)NC(=O)[C@H](CCC(=O)O)NC(=O)[C@H](CC(C)C)NC(=O)[C@H](Cc1ccc(O)cc1)NC(=O)[C@H](CO)NC(=O)[C@H](CO)NC(=O)[C@@H](NC(=O)[C@H](CC(=O)O)NC(=O)[C@H](CO)NC(=O)[C@@H](NC(=O)[C@H](Cc1ccccc1)NC(=O)[C@@H](NC(=O)CNC(=O)[C@H](CCC(=O)O)NC(=O)[C@H](C)NC(=O)CCc1cnc[nH]1)[C@@H](C)O)[C@@H](C)O)C(C)C)C(=O)N[C@@H](C)C(=O)N[C@@H](Cc1c[nH]c2ccccc12)C(=O)N[C@@H](CC(C)C)C(=O)N[C@H](C(=O)N[C@@H](CCCNC(=N)N)C(=O)NCC(=O)N[C@@H](CCCNC(=N)N)C(=O)N[C@@H](CCCCNC(=O)COCCOCCNC(=O)COCCOCCNC(=O)CC[C@H](NC(=O)CCCCCCCCCCCCCCCCC(=O)O)C(=O)O)C(=O)NCC(=O)NCC(=O)N[C@@H](CO)C(=O)N[C@@H](CCCCNc1c(NCCCCCN(O)C(=O)CCC(=O)NCCCCCN(O)C(=O)CCC(=O)NCCCCCN(O)C(C)=O)c(=O)c1=O)C(=O)O)C(C)C | GLP1R | agonist, CRE luciferase reporter | BHK cells | Zr-loaded DFO conjugate, added: 0% HSA | reference: parent peptide | fold potency loss | 4 |
| CCCCN1/C(=C/C=C/c2sc3ccc(Br)cc3[n+]2CCCC)Sc2ccc(Br)cc21.[I-] | CARM1 (Homo sapiens, UniProt Q86X55) | inhibitor, filter binding |  | added: histone H3.3 substrate |  | Hill coefficient | 1.32 |
| O=C(COP(=O)(O)O)[C@@H](O)[C@H](O)[C@H](O)COP(=O)(O)O | Importin subunit alpha-1 (Homo sapiens, UniProt P52292) | thermal proteome profiling, refers to: KPNA2 | HepG2 cell lysate | concentration not given, 57 over 37 °C | reference: compound over control | thermal stability ratio | 0.6 and 0.538 and 0.769 |
| Cc1cc(-c2ccnc3[nH]cc(F)c23)cc(F)c1[C@@]1(O)[C@H](C)CN(C2CCS(=O)(=O)CC2)C[C@@H]1C | AKT1 (Homo sapiens, UniProt P31749) | ATP/ADP probe binding, KiNativ | HEK293T lysate | 1 µM, ATP loop peptide |  | probe labelling inhibition | 4.4% |
| C[C@H](CCC(C)(C)O)[C@H]1CC[C@H]2[C@@H]3CC=C4C[C@@](C)(O)CC[C@]4(C)[C@H]3CC[C@]12C | Glutamate NMDA receptor; GRIN1/GRIN2B (GRIN1/GRIN2B, Homo sapiens, UniProt Q05586+Q13224, T550A) | positive allosteric modulator, two-electrode voltage clamp | Xenopus oocytes expressing GluN1-T550A | 10 µM, 0.02% cremophor, added: 100 µM glutamate and glycine | reference: without compound | current response | 121 ± 5.1% |
| Nc1ncnc2c1ncn2[C@@H]1O[C@H](COP(=O)(O)OP(=O)(O)OP(=O)(O)O)[C@@H](O)[C@H]1O | P2X purinoceptor 7 (P2rx7, Rattus norvegicus, UniProt Q64663) | ion current, two-electrode voltage clamp | Xenopus laevis oocytes | 1000 µM |  | normalized current | 1 and 0.98 and 0.96 |
| Cc1cc(Nc2cc(N3CCN(C)CC3)nc(Sc3ccc(NC(=O)C4CC4)cc3)n2)[nH]n1 | SRPK3 (Homo sapiens, UniProt Q9UPE1) | kinase activity, KinaseProfiler |  | 0.03 µM, species human | reference: control | remaining activity | 101% |
| CCOC(=O)C1=C(CN2CCC[C@@H]2C(=O)Nc2ccc(B(O)O)cc2)NC(c2nccs2)=N[C@H]1c1ccc(F)cc1Br | Capsid protein (C, Hepatitis B virus genotype D subtype ayw, UniProt P03146) | immunoblot | HepG2 expressing HA-HBc, Hepatitis B virus | concentration not given, 3 days, non-toxic concentrations |  | intracellular capsid protein level | decreased |
| CCN1CCC[C@H]1CNC(=O)c1c(O)c(Cl)cc(Cl)c1OC | G-protein coupled receptor 12 (GPR12, Homo sapiens, UniProt P47775) | β-arrestin recruitment, TANGO luminescence, refers to: GPR12 |  | concentration not given | reference: basal luminescence | log2 fold change | -0.389 |

A few entries again:
| SMILES | tested on | test | test system | conditions | scale | measurement | value |
| --- | --- | --- | --- | --- | --- | --- | --- |
| N#CCC(=O)Nc1ccc(C2CCCCC2)cc1 |  | liver microsome stability | mouse liver microsomes | 1 µM |  | hepatic clearance | 74 mL/min/kg |
| O=c1nc(SCc2cc(F)cc(C(F)(F)F)c2)nc(SCc2ccc3nc(OCCN4CCOCC4)ccc3c2)[nH]1 | TOP2A (Homo sapiens, UniProt P11388) | decatenation |  | 7.8 µM, replicate 2 |  | decatenated DNA | 94.3% |
